Published values collected from several papers.
Numbered parts are unrelated; each lists some results of a single study. “And” joins repeats or separate records; there may be more than shown.
Sequence of UniProt O43283 (whole entry, looked up): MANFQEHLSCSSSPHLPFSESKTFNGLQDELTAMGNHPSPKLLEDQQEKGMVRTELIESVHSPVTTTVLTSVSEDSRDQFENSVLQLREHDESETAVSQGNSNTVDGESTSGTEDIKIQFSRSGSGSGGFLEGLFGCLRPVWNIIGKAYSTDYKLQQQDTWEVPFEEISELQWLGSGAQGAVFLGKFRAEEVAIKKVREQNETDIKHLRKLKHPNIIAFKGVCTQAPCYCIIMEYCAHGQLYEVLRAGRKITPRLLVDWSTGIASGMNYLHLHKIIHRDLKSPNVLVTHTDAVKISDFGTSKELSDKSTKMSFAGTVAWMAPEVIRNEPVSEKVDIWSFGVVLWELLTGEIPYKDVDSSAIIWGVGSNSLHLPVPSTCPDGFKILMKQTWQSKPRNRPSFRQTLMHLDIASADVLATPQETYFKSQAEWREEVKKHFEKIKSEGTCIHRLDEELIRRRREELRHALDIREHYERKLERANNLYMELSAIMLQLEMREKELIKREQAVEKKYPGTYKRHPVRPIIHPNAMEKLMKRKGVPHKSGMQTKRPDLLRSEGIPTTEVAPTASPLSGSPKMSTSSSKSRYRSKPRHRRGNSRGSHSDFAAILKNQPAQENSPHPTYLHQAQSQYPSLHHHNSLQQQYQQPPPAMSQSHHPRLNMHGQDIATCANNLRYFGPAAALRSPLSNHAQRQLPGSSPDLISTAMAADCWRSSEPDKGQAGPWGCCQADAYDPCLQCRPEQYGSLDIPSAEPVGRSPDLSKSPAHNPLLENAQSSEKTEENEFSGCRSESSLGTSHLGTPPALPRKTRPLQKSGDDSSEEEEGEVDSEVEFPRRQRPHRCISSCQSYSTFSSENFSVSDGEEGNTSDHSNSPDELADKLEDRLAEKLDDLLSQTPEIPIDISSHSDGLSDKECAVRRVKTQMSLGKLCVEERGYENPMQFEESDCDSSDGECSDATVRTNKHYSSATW
Sequence of UniProt P19784 (whole entry, looked up): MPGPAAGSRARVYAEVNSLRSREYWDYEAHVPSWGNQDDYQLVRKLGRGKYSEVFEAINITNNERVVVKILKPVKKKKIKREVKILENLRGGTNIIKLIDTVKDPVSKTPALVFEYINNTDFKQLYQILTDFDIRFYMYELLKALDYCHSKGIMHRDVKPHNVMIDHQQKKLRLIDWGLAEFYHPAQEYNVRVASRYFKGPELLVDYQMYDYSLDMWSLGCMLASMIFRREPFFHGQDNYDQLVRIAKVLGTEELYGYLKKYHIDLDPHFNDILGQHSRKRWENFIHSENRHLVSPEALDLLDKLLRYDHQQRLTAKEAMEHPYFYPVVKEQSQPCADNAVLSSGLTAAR
Sequence of UniProt P49761 (whole entry, looked up): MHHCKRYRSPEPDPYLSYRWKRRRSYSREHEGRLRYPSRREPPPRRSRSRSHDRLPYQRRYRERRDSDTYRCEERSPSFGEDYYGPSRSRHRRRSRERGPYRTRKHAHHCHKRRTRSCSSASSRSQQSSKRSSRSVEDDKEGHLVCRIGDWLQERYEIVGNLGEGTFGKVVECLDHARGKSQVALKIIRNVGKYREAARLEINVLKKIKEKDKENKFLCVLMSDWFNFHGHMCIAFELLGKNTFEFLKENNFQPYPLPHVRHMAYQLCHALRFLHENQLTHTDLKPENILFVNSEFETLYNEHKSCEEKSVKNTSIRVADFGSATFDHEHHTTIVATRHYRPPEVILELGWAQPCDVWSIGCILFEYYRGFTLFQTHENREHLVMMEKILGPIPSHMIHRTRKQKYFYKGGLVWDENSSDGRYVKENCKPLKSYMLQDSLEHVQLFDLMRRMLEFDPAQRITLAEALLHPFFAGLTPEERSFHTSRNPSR
Sequence of UniProt Q52WX2 (whole entry, looked up): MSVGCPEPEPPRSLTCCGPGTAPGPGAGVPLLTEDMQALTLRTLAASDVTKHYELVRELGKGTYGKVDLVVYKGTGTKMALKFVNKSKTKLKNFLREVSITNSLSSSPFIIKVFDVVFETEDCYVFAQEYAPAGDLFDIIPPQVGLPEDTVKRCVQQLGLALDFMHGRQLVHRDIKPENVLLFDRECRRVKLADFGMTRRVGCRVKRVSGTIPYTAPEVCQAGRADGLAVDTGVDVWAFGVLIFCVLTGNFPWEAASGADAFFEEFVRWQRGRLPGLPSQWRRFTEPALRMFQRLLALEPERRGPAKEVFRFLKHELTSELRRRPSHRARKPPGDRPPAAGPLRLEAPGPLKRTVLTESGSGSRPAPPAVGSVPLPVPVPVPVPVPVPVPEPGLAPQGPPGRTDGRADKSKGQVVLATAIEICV
Sequence of UniProt P42336 (whole entry, unmodified, looked up): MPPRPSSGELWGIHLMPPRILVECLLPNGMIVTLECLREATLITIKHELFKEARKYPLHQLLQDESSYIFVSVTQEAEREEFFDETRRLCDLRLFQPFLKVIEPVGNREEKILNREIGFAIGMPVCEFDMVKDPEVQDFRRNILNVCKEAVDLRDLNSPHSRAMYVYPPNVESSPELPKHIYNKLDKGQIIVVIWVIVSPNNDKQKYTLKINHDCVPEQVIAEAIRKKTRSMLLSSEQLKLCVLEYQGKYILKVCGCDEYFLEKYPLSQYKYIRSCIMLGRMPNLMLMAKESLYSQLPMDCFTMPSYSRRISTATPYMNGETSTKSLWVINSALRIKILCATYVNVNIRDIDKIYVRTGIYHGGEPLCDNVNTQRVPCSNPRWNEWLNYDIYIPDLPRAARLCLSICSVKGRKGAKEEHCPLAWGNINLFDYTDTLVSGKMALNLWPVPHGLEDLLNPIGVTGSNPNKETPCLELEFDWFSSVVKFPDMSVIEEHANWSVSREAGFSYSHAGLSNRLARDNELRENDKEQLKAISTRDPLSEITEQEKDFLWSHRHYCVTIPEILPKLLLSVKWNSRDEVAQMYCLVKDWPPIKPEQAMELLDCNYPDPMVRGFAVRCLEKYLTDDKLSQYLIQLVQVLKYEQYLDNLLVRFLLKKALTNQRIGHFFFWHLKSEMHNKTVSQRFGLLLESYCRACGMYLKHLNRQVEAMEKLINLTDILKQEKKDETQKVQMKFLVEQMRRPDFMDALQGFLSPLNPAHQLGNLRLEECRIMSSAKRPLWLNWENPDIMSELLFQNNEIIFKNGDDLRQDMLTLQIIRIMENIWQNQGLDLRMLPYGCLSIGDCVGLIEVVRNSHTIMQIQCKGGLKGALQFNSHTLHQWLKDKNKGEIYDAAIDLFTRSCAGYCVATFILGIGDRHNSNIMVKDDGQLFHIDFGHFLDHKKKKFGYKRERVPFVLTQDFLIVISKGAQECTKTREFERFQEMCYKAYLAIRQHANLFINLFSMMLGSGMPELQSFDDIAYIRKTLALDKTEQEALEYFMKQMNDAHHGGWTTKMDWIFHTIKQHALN
Sequence of UniProt Q8TDX7 (whole entry, looked up): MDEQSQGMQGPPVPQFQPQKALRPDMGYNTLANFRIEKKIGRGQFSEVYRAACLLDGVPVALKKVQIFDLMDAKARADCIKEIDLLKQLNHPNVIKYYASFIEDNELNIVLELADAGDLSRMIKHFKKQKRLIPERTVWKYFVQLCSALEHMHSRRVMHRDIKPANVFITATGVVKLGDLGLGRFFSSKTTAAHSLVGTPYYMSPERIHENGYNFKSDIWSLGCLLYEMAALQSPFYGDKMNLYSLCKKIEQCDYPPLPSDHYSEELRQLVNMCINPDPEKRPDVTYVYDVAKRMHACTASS
Sequence of UniProt Q86YV6 (whole entry, looked up): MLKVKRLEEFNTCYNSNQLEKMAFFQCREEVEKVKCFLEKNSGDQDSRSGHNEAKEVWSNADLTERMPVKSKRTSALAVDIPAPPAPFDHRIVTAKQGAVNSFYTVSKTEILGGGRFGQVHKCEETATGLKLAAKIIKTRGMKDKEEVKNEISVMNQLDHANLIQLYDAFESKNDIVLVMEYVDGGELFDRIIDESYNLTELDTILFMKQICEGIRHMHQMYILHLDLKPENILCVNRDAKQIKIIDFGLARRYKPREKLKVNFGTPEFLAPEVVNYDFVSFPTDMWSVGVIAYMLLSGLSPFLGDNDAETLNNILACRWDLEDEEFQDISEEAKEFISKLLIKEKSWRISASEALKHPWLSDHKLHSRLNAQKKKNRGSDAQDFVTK

Sample 1 — tested at: 1 µM
Compound: Cc1nc(N2CC[C@@H](O)C2)ncc1-c1cc(C(F)(F)F)cc2[nH]ncc12
target	test	remaining binding [%]
Myosin light chain kinase family member 4 (MYLK4, Homo sapiens, UniProt Q86YV6)	cell-free assay, competition with immobilised ligand	100
Aurora kinase C (AURKC, Homo sapiens, UniProt Q9UQB9)	cell-free assay, competition with immobilised ligand	100
Ephrin type-A receptor 7 (EPHA7, Homo sapiens, UniProt Q15375)	cell-free assay, competition with immobilised ligand	63
Bone morphogenetic protein receptor type-2 (BMPR2, Homo sapiens, UniProt Q13873)	cell-free assay, competition with immobilised ligand	81
Dual specificity protein kinase CLK3 (CLK3, Homo sapiens, UniProt P49761)	binding, competition with immobilised ligand	76
Serine/threonine-protein kinase SBK1 (SBK1, Homo sapiens, UniProt Q52WX2)	binding, competition with immobilised ligand	82
AP2-associated protein kinase 1 (AAK1, Homo sapiens, UniProt Q2M2I8)	binding	100
Casein kinase II subunit alpha' (CSNK2A2, Homo sapiens, UniProt P19784)	cell-free assay, competition with immobilised ligand	91
Serine/threonine-protein kinase/endoribonuclease IRE1 (ERN1, Homo sapiens, UniProt O75460)	cell-free assay, competition with immobilised ligand	86
Serine/threonine-protein kinase Nek7 (NEK7, Homo sapiens, UniProt Q8TDX7)	binding, competition with immobilised ligand	97
Mitogen-activated protein kinase kinase kinase 13 (MAP3K13, Homo sapiens, UniProt O43283)	binding, competition with immobilised ligand	56
Serine/threonine-protein kinase PLK2 (PLK2, Homo sapiens, UniProt Q9NYY3)	binding, competition with immobilised ligand	76
Epidermal growth factor receptor (EGFR, Homo sapiens, UniProt P00533, del747-750/T751S)	cell-free assay, competition with immobilised ligand	100
Ephrin type-A receptor 8 (EPHA8, Homo sapiens, UniProt P29322)	cell-free assay, competition with immobilised ligand	61
Phosphatidylinositol 4,5-bisphosphate 3-kinase catalytic subunit alpha isoform (PIK3CA, Homo sapiens, UniProt P42336, Q546K)	cell-free assay, competition with immobilised ligand	82
Serine/threonine-protein kinase pim-3 (PIM3, Homo sapiens, UniProt Q86V86)	binding, competition with immobilised ligand	100

Sample 2 — mode: antagonist
Target: Beta-1 adrenergic receptor (ADRB1, Homo sapiens, UniProt P08588)
Sequence of UniProt P08588 (whole entry, looked up): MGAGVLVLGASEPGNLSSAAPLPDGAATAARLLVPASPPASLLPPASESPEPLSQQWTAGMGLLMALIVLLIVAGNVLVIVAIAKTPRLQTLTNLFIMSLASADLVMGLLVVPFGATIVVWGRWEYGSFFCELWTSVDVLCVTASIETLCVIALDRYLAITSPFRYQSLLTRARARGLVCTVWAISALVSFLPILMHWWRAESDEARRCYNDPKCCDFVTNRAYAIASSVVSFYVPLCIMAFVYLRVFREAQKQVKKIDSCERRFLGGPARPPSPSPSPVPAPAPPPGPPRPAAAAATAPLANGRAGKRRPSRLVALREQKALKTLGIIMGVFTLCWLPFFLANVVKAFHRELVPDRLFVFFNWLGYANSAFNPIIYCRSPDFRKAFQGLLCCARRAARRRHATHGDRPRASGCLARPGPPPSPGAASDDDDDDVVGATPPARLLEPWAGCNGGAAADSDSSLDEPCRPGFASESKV
Structure (SMILES)	IC50
O=C1c2cnc(-c3ccsc3)nc2OCCN1c1ccccc1	≥ 100 µM
Cc1cc(C(=O)Nc2ccc3ccccc3n2)c2cnn(C(C)C)c2n1	≥ 100 µM
Cn1c(=O)cc(N2CCN(c3cccc(Cl)c3)CC2)[nH]c1=O	≥ 100 µM
O=C(Nc1ccc([C@@H](O)[C@H]2COCC(=O)N2CC2CC2)cc1)c1ccc(F)cc1	≥ 100 µM

Sample 3 — species: human; medium: microsomes or S9; tested at: 2 µM; time: 0.5 h
Structure (SMILES)	remaining compound
OCC1O[C@@H](Oc2cc(O)cc(C3c4c(/C=C/c5ccc(O)cc5)cc(O)cc4OC3c3ccc(O)cc3)c2)C(O)[C@H](O)[C@@H]1O (some centres unmarked)	> 99%
CC(=O)O[C@H](C)[C@@H]1NC(=O)[C@H](CC(C)C)NC1=O	93.8%
Cc1cc(C)n(-c2nc(CCNC(=O)CCn3ccc(=O)[nH]c3=O)cs2)n1	> 99%

Sample 4 — Compound: C=CCc1ccc(O)c(-c2ccc(O)c(CC=C)c2)c1; read-out: chloride current; mode: inhibitor; method: whole-cell voltage clamp
target	setting	IC50
Anoctamin-1 (ANO1, Homo sapiens, UniProt Q5XXA6, del476-501/F803A)	mutant F777A	14.6 µM
Anoctamin-1 (ANO1, Homo sapiens, UniProt Q5XXA6, del476-501/F628Y)	60 mV holding voltage	22.8 µM
Anoctamin-1 (ANO1, Homo sapiens, UniProt Q5XXA6, del476-501/R631D)	R605D mutant at -20 mV	19.9 µM
Anoctamin-1 (ANO1, Homo sapiens, UniProt Q5XXA6, del476-501/F628I)	F602I mutant at -40 mV	13.7 µM

Single results of other studies
Structure (SMILES)	tested on	test	system	setting	how to read	endpoint	value
O=C(C1CC1)N1CC[C@@H](Cc2n[nH]c(=O)n2-c2ccc(-c3ccc4occc4c3)cc2)C1	mouse MPNST tumor cells	high-content immunofluorescence imaging, refers to: nuclear SOX9	–	10 µM, 12 h, mean of 2 replicates	baseline: DMSO control, higher = more nuclear SOX9	nuclear SOX9 intensity	84.9 % of DMSO
CC(C)n1cnc(-c2ccc(F)cc2)c1-c1ncc(C(=O)Nc2ccc(N3CCN(C)CC3)cc2)[nH]1	–	–	human, idiopathic pulmonary fibrosis	30 mg once daily, trial, treatment-emergent	–	patients with chest discomfort	0%
CC(C(=O)O)c1ccc(-c2ccccc2)c(F)c1 (centres unmarked)	mouse MPNST tumor cells	high-content immunofluorescence imaging, refers to: nuclear SOX9	–	10 µM, 12 h, mean of 2 replicates	baseline: DMSO control, higher = more nuclear SOX9	nuclear SOX9 intensity	95.1 % of DMSO and 95.4 % of DMSO
COc1ccc(-c2c(Nc3ccccn3)[nH]c3c(C4=CCCCC4)c(-c4ccccc4)nn3c2=O)cc1	–	–	human patients, plasma	oral, 150 mg once daily, day 15, cycle 1, tau 24 h	–	AUC(0-tau) geometric mean	93600 ng·h/mL
N#Cc1cc(F)cc(-c2nc(-c3ccc(F)cn3)no2)c1	mouse MPNST tumor cells	high-content immunofluorescence imaging, refers to: nuclear SOX9	–	10 µM, 12 h, mean of 2 replicates	baseline: DMSO control, higher = more nuclear SOX9	nuclear SOX9 intensity	105 % of DMSO

Repeated from above (sample 1):
target	test	remaining binding [%]
Myosin light chain kinase family member 4 (MYLK4, Homo sapiens, UniProt Q86YV6)	cell-free assay, competition with immobilised ligand	100
Ephrin type-A receptor 8 (EPHA8, Homo sapiens, UniProt P29322)	cell-free assay, competition with immobilised ligand	61
Serine/threonine-protein kinase SBK1 (SBK1, Homo sapiens, UniProt Q52WX2)	binding, competition with immobilised ligand	82
Bone morphogenetic protein receptor type-2 (BMPR2, Homo sapiens, UniProt Q13873)	cell-free assay, competition with immobilised ligand	81
